Assay results pooled from the literature.
Each numbered part is a random draw from the data of one study; scales do not carry over between parts.

Series 1 — method: universal PBM; molecule type: double-stranded DNA, one strand shown; sample: in vitro; tested at: not given; direction: higher = stronger binding
Target: Sal-like protein 4, full length isoform B (SALL4, Homo sapiens, UniProt Q9UJQ4-2, residues 1-616)
Notes: 8-mer, flanks averaged, mean of replicates
| Sequence | E-score |
| --- | --- |
| AAAGCGAA | 0.121 |
| CACTCTAA | 0.0579 |
| TTCCGAAA | 0.168 |
| ATACCCCC | 0.0167 |
| AGATACAA | 0.29 |
| CATGTGAA | -0.0314 |
| AACTCACG | 0.0915 |
| CAACATTA | 0.248 |
| ATAAATAC | 0.349 |
| CGGGGTGA | -0.163 |
| CGTACTGC | 0.0465 |
| GAAAGGTC | -0.0297 |
| ATAGGTTC | 0.179 |
| ACCACCCC | -0.191 |
| ACACGTTC | 0.11 |
| AGTGACTG | -0.187 |
| ATGGCCAG | 0.058 |
| ACAGTTAT | 0.294 |
| CTCGGATC | -0.171 |
| AAAGTTAG | 0.0698 |
| CGTGCAGA | -0.0773 |
| CCGCTCAA | -0.0721 |
| ACTGGGCG | -0.24 |
| CGGCTCCC | -0.387 |
| AGTTCTAG | -0.0257 |

Series 2 — method: RNA Bind-n-Seq; molecule type: RNA; sample: in vitro; tested at: 100 nM; baseline: input RNA pool; direction: higher = stronger binding
Target: RING finger protein unkempt homolog, zinc fingers 1-6, SBP tag (UNK, Homo sapiens, UniProt Q9C0B0, residues 30-357)
UniProt Q9C0B0, sequence (30-357, looked up): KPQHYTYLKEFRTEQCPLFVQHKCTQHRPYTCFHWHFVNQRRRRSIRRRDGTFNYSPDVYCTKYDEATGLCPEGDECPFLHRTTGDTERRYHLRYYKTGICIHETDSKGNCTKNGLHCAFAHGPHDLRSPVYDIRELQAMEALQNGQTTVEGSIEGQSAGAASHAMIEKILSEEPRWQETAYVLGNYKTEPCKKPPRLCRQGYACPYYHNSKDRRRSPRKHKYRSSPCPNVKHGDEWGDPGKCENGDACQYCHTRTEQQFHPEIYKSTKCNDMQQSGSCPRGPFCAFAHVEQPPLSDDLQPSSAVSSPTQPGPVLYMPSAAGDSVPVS
Notes: RNA with constant flanks, vertebrate orthologous sites, ends assumed
Constant ends, left off below: GGGAGUUCUACAGUCCGACGAUC … CAACAGAGGAUUGAGCAUCA
| Sequence | bound/input enrichment |
| --- | --- |
| GUUGUGACCCAUUUAACAUACACAGGAAAGUAUCAAAGAAAAAUUUACGUGCAAUCGACUUAGAUGAUGCAGCUUUUCUAAGUGCCAAGUUUGGAAGACAGUUUGUACCUGGUUGGAAGC | 1.11 ratio |
| GCAAUGAAAAAGCAGCCCUUCUCCCAGCCCCCCUUUCACUAGGAGUUACAAACGUUCCUAUAGAAGAGCAAUUAAACUCAAUAAAUUUAUCUUUUCAGGAUGAUCCAGACUCCAGUACGA | 0.785 ratio |
| CACAUCUGGUGAUAUUUGGCCUGGCCUUUCAGCUUAUGAUAAUAGUCCCAGAUCACCUCAUAGUCCUUCACCGAUUGCUACACCACCUAGUCAGAGUUCAUCUUGCUCUGAUGCCCCCAU | 0.817 ratio |
| AGUCUAGAAGGGGUAACCACUAACUUAUUUUAUAAGGAAAGGAAAUGCUGAAAAUCAUGUUAGUGCCAAGUGCAGUUGGAGAACAUAAGCCACUUUUAGGUAAUUCUCAAGUGGAAAUCC | 0.854 ratio |
| GGGACGUUUUGAUGUAAAAAUUGAAGUUAAGAGCUGAUCACAAGCACAAAAUCUUUCCCACUAGCCAUUUAAUAAGUUAAAAAAGAUACAAAAACAAAAACCUACUAGUCUUGAACAAAC | 2.76 ratio |
| UUAAAGUUUUUUUUUUUAAUUUAAUUUUUUCCUUUUGGGGGUACAGUUUGCUCUACCAAAUAGUGAUCGUAACAAAUUGAUCUGUUUUGGAUGUUGCUAUAGUGACAUGCAGUUAUAUAU | 0.921 ratio |
| GUCCUUGAUUCACAUUCCUCUCUGUUUGUGUUUAGAGAAAGAAAGAAAAAAAAAGACAUUUUAGCCUUUUUUAAAGUUACUGAUAUAAUUUCUUGUUACUUGGUUGCAUGAAGCUGCCCU | 0.656 ratio |
| UGAGGACUAAUUUGAUUUUCAGUCUCUUUAUCCUUAUUUUAAAAGCCCCCUCUUUUUUAGGCAUAUAUAGUAACAUUAGCAGAAAGAUUUAAUUUGGGCAACUUUUGAUUCUUAAGAGAA | 1.85 ratio |

Series 3 — method: RNA Bind-n-Seq; molecule type: RNA; sample: in vitro; tested at: 365 nM; baseline: no-protein control; direction: higher = stronger binding
Target: RNA binding protein fox-1 homolog 2, RRM domain, GST-SBP tag (RBFOX2, Homo sapiens, UniProt O43251-10, residues 100-194)
Notes: natural RNA segment, single round, ends assumed
Constant ends, left off below: GGGAGUUCUACAGUCCGACGAUC … UGGAAUUCUCGGGUGCCAA
Residues (chain): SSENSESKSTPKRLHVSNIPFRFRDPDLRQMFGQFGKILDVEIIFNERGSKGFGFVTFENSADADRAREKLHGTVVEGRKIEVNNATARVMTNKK
| Sequence | RBNS enrichment (R) |
| --- | --- |
| UGUGUUGAUCCAAAUUUGCAUAGCUGUUUAAUGUUAAGUCAUGACAAUUUAUUUUUCUUGGCAUGCUAUGUAAACUUGAAUUUCCUAUGUAUUUUUAUUGUGGUGUUUUA | 0.84 |
| GUUUACUUGAAGAAAAAAGCACCCGUGGAGAAUAAAGAGACCUCAAUAAACAAGAAUAAUCAUGUGACGUGGAAUCUGUUUUCUCACCUUCUGUUCUCGAUUUCCCAUCU | 0.333 |
| AAGUUCCCGUGAUUGCAGUAAAAAUAUUUACUAUUCUAAAAAAAUGAGAAUUGAAGACUUAGCCAGUCAGAUAAGUUUUUUCAUGAACCCGUUGUGGAAAUUAUUGGAAU | 0.403 |
| CUGCCUUAGAAAGUUAAUAUAUUUUAAAUUAUUUUAAAAGAAACUCAACAUCUUAUUCUUUGGCCUUUCUUAAUUGAUGCUUUAUGGAGGCAGUGUUAACAUUGUACAGU | 0.471 |
| ACGUUUGCAGAAACUGCCCCUCCCCUCAUUGAGGGUCACUGCUCAAGAGUGCAGGAGUGGACUCUCCACUGAUGGGUCUCCCUCCCCAUCCUGGUUUCCACCCCGGGCUG | 0.54 |
| AUCUGGGGACCCUCUCCCCGGCUGCCUCAGGCUUCUCCCACGAAGAGGAAACGCAAAAAAAGAAAAAGAAAAGGAAUAUAACUACUACGUGCUCAUCCCCUUCCCUCCCG | 0.418 |
| CUUGAAAAUCAGAUUCUAACUGGAUUUGUAUGCAACUAAGUAUUUUUCUGAACACCUAUGCAGGUCUUAUUUACAGUAGUUACUAAGGGAACACACAAAGAAUUACACAA | 0.561 |
| UGGGUCCUGGAUCCUUCCCCCCUUCUCACCAUAACCCCCUCUCAGUGUUUCCCCAACUUCUCCCUUUUAGCAGGGUCCCUUUAGAGCCCAACUCCAGGUCAAAUCUGGAG | 0.938 |

Series 4 — method: RNA Bind-n-Seq; molecule type: RNA; sample: in vitro; tested at: 1 µM; notes: whole 134-nt RNA, ends assumed; added: 150 mM KCl; baseline: input library; direction: higher = stronger binding
Target: Ras GTPase-activating protein-binding protein 1, RRM domain (G3BP1, Homo sapiens, UniProt Q13283)
UniProt Q13283, sequence (whole entry, looked up): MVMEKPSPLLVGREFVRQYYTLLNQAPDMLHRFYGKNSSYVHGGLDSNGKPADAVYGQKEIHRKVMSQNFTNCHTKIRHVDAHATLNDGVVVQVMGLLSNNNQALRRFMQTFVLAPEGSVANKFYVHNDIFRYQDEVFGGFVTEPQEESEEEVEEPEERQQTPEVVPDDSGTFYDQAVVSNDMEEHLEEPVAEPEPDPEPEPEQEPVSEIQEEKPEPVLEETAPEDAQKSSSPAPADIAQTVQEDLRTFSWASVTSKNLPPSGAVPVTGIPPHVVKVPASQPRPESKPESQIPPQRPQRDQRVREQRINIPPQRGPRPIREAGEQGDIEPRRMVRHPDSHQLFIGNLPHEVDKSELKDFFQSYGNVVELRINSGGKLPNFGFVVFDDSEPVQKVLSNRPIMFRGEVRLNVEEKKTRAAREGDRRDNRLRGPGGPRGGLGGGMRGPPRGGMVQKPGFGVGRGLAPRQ
Constant ends, left off below: GGGAGUUCUACAGUCCGACGAUC … UGGAAUUCUCGGGUGUCAAGG
| Sequence | log2 enrichment |
| --- | --- |
| UGGGAGGUGGAUUUUGUUUAUUUUUUUAGCUCAUUUCCAGGGGUGGGAAUUUUUUUUUAAUAUGUGUCAUGAAUAAAGUUGUUUUUGAAG | 2.14 |
| AAGUCCUGUGCUACACAUCGUAUGUACCGAAUCGGUUUUGGGGUUUUGGUUUUGGGAAAGUAUUAUGUUACGCCGUUCGGAUCUGCACUU | -0.197 |
| UGUGCUACACAUCGUAUGUACCGAAUCGGGGAAAAAAAGGGGUUUUUGGGGAAAAAAAGGGGAAAGUAUUAUGUUACGCCGUUCGGAUCU | 1.33 |
| UCAAGUCCUGUGCUACACAUCGUAUGUACCGAAUCGGUUGGGGUUGGGGUUGGGGAAAGUAUUAUGUUACGCCGUUCGGAUCUGCACUUC | 0.542 |
| GUCCUGUGCUACACAUCGUAUGUACCGAAUCGGGCCCCCGGGCCCCCGGGGCCCCCGGAAAGUAUUAUGUUACGCCGUUCGGAUCUGCAC | -0.842 |
| CUGUGCUACACAUCGUAUGUACCGAAUCGGGGUUUUUUUGGGGAAAAAGGGGAAAAAGGGGAAAGUAUUAUGUUACGCCGUUCGGAUCUG | 0.619 |
| AGUCCUGUGCUACACAUCGUAUGUACCGAAUCAAACCCAAACCCAAAUUUUUUUAAAAAAGUAUUAUGUUACGCCGUUCGGAUCUGCACU | -0.505 |
| CUCAAGUCCUGUGCUACACAUCGUAUGUACCGAAUCGGGGUUGGGUUGGGUUGGAAAGUAUUAUGUUACGCCGUUCGGAUCUGCACUUCC | -0.19 |
| UGGCCCUGGUGGCAUGCGGGGAGGAAGAGGUGGCCUCAUGGAUCGUGGUGGUCCCGGUGGAAUGUUCAGAGGUGGCCCUGGUGGAGACAG | 1.45 |

Excerpt of the above (series 3):
| Sequence | RBNS enrichment (R) |
| --- | --- |
| AUCUGGGGACCCUCUCCCCGGCUGCCUCAGGCUUCUCCCACGAAGAGGAAACGCAAAAAAAGAAAAAGAAAAGGAAUAUAACUACUACGUGCUCAUCCCCUUCCCUCCCG | 0.418 |
| AAGUUCCCGUGAUUGCAGUAAAAAUAUUUACUAUUCUAAAAAAAUGAGAAUUGAAGACUUAGCCAGUCAGAUAAGUUUUUUCAUGAACCCGUUGUGGAAAUUAUUGGAAU | 0.403 |
| UGGGUCCUGGAUCCUUCCCCCCUUCUCACCAUAACCCCCUCUCAGUGUUUCCCCAACUUCUCCCUUUUAGCAGGGUCCCUUUAGAGCCCAACUCCAGGUCAAAUCUGGAG | 0.938 |
